Experimental data pooled from the literature.
Protocols differ between the studies behind these lines. Numbers after ± are the reported error.
DDR1: Epithelial discoidin domain-containing receptor 1 (DDR1, Homo sapiens, UniProt Q08345)
Chain of UniProt Q08345 (whole entry, looked up): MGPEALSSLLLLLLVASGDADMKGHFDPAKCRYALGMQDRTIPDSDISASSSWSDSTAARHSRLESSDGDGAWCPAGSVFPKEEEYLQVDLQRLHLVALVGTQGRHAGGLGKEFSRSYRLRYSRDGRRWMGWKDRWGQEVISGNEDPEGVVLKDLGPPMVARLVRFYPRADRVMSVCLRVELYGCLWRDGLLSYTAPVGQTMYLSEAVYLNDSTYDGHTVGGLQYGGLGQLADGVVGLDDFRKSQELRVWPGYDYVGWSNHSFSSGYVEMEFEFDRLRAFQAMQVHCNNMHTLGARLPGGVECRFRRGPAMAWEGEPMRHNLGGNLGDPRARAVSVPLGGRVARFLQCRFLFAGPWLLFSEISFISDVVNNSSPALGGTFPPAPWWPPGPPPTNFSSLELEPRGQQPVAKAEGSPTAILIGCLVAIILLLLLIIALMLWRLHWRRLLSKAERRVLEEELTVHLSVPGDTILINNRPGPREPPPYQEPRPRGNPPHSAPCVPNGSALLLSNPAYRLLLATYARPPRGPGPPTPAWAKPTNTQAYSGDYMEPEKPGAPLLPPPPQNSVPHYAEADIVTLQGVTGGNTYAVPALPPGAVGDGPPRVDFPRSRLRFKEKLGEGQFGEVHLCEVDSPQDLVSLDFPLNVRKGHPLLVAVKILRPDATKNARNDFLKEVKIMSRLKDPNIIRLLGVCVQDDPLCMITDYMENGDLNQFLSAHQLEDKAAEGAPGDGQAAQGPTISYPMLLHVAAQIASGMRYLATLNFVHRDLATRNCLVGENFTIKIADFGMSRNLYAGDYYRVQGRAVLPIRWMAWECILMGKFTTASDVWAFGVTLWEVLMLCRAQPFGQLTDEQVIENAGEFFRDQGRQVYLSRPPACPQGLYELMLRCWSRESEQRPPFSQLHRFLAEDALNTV
UGT1A4: UDP-glucuronosyltransferase 1A4 (UGT1A4, Homo sapiens, UniProt P22310)
Chain of UniProt P22310 (whole entry, looked up): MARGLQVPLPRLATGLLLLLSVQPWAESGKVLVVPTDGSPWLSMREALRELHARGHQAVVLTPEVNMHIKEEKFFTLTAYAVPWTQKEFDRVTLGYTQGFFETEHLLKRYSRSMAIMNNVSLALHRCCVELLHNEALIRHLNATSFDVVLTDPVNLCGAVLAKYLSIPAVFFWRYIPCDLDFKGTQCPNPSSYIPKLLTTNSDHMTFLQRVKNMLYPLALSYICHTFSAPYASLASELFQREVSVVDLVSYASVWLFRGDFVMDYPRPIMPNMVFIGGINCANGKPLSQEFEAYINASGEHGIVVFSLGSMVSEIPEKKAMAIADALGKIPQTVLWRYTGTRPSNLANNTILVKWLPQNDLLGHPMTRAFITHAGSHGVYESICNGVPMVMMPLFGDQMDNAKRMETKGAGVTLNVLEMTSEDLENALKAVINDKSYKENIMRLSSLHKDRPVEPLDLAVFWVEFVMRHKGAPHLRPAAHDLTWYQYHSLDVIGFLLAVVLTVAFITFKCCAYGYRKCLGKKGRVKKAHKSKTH
CAMK2G: Calcium/calmodulin-dependent protein kinase type II subunit gamma (CAMK2G, Homo sapiens, UniProt Q13555)
Chain of UniProt Q13555 (whole entry, looked up): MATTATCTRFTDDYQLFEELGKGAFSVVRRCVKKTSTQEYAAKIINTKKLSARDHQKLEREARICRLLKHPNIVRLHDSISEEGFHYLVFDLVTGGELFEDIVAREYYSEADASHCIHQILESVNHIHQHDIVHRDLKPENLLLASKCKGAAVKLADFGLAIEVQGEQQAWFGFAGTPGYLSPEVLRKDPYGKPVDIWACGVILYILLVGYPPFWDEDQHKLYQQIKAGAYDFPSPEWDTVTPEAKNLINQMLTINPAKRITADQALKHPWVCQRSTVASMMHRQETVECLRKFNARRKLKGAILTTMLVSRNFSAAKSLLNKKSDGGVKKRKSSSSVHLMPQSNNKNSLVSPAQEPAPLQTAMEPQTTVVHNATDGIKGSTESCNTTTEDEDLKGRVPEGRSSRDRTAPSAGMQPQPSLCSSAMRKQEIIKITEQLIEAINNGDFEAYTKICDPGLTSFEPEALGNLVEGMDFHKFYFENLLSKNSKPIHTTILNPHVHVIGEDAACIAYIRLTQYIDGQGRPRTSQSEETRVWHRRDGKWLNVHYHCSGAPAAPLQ
Chain of UniProt P48067 (whole entry, unmodified, looked up): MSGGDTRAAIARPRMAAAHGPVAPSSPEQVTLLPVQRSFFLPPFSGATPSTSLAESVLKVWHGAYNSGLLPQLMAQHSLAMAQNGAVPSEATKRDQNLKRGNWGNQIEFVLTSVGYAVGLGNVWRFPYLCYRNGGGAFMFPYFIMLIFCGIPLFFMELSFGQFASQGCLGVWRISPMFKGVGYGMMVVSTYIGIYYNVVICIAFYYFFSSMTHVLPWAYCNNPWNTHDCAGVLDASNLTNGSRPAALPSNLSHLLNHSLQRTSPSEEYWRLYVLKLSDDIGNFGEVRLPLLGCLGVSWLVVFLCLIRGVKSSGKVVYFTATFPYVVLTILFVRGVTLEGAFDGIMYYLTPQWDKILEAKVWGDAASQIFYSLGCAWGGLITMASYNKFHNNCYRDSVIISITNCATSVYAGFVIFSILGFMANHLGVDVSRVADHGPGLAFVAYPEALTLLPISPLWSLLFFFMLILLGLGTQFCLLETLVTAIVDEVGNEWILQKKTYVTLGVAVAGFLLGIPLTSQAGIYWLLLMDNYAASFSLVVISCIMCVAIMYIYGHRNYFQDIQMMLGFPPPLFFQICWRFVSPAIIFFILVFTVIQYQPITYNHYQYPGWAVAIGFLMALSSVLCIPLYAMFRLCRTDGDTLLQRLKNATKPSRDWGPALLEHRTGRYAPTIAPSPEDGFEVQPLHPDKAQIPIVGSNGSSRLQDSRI
Chain of UniProt P05164 (whole entry, looked up): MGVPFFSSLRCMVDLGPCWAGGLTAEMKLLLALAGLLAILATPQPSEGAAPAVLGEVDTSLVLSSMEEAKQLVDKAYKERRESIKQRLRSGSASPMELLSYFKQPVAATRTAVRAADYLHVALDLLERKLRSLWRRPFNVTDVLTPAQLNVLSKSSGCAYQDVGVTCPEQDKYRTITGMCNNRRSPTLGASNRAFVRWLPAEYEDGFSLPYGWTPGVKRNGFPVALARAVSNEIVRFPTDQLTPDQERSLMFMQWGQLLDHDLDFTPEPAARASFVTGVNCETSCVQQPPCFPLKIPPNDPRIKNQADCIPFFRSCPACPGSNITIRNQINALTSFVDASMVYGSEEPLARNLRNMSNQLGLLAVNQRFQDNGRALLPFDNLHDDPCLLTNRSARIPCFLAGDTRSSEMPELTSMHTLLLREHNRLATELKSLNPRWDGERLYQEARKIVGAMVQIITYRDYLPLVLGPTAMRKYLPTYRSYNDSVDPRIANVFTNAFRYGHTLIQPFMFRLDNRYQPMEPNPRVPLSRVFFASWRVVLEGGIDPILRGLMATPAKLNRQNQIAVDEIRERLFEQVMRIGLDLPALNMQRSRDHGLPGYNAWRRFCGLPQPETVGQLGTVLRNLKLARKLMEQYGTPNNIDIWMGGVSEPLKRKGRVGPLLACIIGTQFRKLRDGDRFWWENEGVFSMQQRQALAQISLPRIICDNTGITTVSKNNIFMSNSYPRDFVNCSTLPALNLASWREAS
Chain of UniProt P35626 (whole entry, looked up): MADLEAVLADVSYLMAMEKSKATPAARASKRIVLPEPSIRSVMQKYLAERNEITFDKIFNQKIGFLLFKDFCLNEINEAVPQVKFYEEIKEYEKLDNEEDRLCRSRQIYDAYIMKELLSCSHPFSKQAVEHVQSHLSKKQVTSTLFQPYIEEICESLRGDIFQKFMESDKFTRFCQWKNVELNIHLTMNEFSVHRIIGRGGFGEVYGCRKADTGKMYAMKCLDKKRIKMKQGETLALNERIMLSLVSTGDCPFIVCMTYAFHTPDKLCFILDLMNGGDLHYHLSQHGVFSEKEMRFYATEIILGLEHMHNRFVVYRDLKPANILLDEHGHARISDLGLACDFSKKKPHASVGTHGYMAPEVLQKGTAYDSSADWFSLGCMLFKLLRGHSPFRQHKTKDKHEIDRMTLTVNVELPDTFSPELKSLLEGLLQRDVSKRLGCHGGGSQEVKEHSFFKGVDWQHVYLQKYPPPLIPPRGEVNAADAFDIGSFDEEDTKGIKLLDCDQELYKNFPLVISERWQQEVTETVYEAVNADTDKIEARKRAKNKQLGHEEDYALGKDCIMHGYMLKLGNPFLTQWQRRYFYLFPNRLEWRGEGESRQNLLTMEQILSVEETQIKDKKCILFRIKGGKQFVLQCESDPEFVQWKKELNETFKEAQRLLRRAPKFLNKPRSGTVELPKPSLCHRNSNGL
Chain of UniProt P53341 (whole entry, looked up): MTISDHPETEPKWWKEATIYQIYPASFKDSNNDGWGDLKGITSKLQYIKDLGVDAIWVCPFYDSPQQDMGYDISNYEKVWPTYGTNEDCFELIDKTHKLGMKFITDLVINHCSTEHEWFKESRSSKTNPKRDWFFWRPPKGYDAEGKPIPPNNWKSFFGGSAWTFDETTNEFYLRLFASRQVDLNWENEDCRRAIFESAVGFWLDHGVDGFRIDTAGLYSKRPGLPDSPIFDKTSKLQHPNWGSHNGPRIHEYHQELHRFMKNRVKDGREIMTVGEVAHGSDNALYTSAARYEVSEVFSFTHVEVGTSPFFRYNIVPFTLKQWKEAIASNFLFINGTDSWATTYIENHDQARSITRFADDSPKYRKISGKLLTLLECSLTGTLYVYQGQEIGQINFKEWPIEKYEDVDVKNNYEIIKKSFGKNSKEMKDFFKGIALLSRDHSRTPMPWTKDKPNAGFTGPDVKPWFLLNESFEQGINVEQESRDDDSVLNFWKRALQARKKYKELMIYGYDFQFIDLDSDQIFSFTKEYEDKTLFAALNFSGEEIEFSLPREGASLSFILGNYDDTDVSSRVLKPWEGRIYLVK

Compound	target or system	test	system	conditions	how to read	measurement	value
CNc1ncc2c(/C=C/C(=O)N3CCC(OC)CC3)nn(Cc3cccc(C(F)(F)F)c3)c2n1	GRK3 (Homo sapiens, UniProt P35626)	kinase activity, inhibitor	–	1 µM	reference: untreated control	remaining activity	99%
COc1cc(N2CCN(C)CC2)ccc1Nc1nc(N)n(C(=O)NCc2c(Cl)cccc2Cl)n1	EGFR (Homo sapiens, UniProt P00533, del747-752/P753S)	enzyme activity	–	10 µM	reference: control	remaining activity	9.6%
Cc1cc(=O)oc2cc(NC(=O)CCCCCCC(=O)NO)ccc12	OCI-Ly1	–	–	0.5 µM, 120 h	–	viability	48.3%
COc1cc(Nc2ncc3c(n2)-c2ccc(Cl)cc2C(c2c(F)cccc2OC)=NC3)ccc1C(=O)O	NEK1	kinase activity	–	1 µM	–	remaining activity	97%
NC/C(=C\F)COc1cccc(Cn2c(=S)[nH]c(=O)c3[nH]cnc32)c1	Myeloperoxidase (MPO, Homo sapiens, UniProt P05164)	LDL lipid peroxidation, inhibitor, cholesteryl ester hydroperoxide	–	0.00069 µM	–	remaining activity	94%
COc1cc(N2CCN(C)CC2)ccc1Nc1nc(N)n(C(=S)NCc2c(Cl)cccc2Cl)n1	MAPKAPK2 (Homo sapiens, UniProt P49137)	enzyme activity	–	10 µM	reference: control	remaining activity	20%
CC#CC(=O)N1CCC[C@H]1c1nc(-c2ccc(C(=O)Nc3ccccn3)cc2)c2c(N)nccn12	DDR1	kinase activity, inhibitor, HotSpot radiometric	–	100 nM, with: ATP 10 µM	–	remaining activity	87.05 ± 0.6%
c1cnc2ccc(Nc3nc(NC4CC4)c4nc[nH]c4n3)cc2c1	DDR1	kinase activity, inhibitor, SelectScreen kinase profiling	–	1 µM	reference: control	remaining activity	90%
O=C1NC(=O)/C(=C/c2ccc(-c3ccc(F)cc3O)o2)S1	RIPK2 (Homo sapiens, UniProt O43353)	enzyme activity	–	10 µM	–	remaining activity	19%
CCCCCCCCCCCCCCNC(=O)/C=C/c1ccc(O)c(O)c1	MAL12 (Saccharomyces cerevisiae S288c, UniProt P53341)	enzyme activity	–	10 µM, with: α-amylase present	–	remaining activity	18.5 ± 0.89%
C[C@@H]1CC[C@@]2(OC1)O[C@H]1C[C@H]3[C@@H]4CC[C@H]5C[C@@H](O)CC[C@]5(C)[C@H]4CC(=O)[C@]3(C)[C@H]1[C@@H]2C	UGT1A4	glucuronidation, inhibitor	human liver microsomes	100 µM, with: probe substrate 50 µM	reference: no inhibitor	remaining activity	~10%
Cc1cc(NC(=O)c2cccc(NC(=O)/C=C/CN(C)C)c2)ccc1Nc1nccc(-c2cccnc2)n1	MAPK8 (Homo sapiens, UniProt P45983)	enzyme activity, inhibitor	–	0.0007527 µM, 18 h, unit not given, with: GSH 10 mM pre-incubation	reference: vehicle	remaining activity	1.02
O=C(CCCCCCC(=O)NO)NO	OCI-Ly1	–	–	0.1 µM, 120 h	–	viability	191%
O=c1cc(-c2ccc(O)c(-c3c(O)cc(O)c4c(=O)cc(-c5ccc(O)cc5)oc34)c2)oc2cc(O)cc(O)c12	UGT1A4	glucuronidation, inhibitor	human liver microsomes	1 µM, with: probe substrate 0.5 µM	reference: no inhibitor	remaining activity	~70%
O=C(NC1CCC1)c1ccc2nc(-c3cccc(NS(=O)(=O)NCCN4CCCCC4)c3)cn2c1	TIE1 (Homo sapiens, UniProt P35590)	enzyme activity	–	10 µM	–	remaining activity	100%
Cc1cc(Nc2cc(N3CCN(C)CC3)nc(Sc3ccc(NC(=O)C4CC4)cc3)n2)[nH]n1	CAMK2G	kinase activity, KinaseProfiler	–	0.03 µM, species human	reference: control	remaining activity	109%
COc1cc(-c2cncc3c2CN(C)Cc2cc(N4CCNCC4)ccc2-3)cc(OC)c1OC	CAMK2G	kinase activity	–	1 µM, human enzyme, with: ATP 10 µM	reference: DMSO control	remaining activity	100%
C=CC(=O)N1CCC([C@@H]2CCNc3c(C(N)=O)c(-c4ccc(Oc5ccccc5)cc4)nn32)CC1	MAP2K1 (Homo sapiens, UniProt Q02750)	kinase activity, inhibitor, HotSpot radiometric	–	100 nM, with: ATP 10 µM	–	remaining activity	111 ± 1.9%
CCCCCCCC(=O)c1cc(OC)c(OC)c(OC)c1CC(=O)OCC	COS-7	–	–	10 µM, 24 h, 0.1% DMSO, unit not given	reference: vehicle control	confluence	0.93 ± 0.04
Oc1cccc(-c2nc(N3CCOCC3)c3oc4ncccc4c3n2)c1	VEGFR	enzyme activity	–	10 µM	–	remaining activity	92%
COc1cc(F)ccc1-c1ncnc(Nc2cccc(C[S@](C)(=N)=O)c2)n1	Blk (Mus musculus, UniProt P16277)	kinase activity	–	10 µM, with: 10 µM ATP	–	remaining activity	52%
CN(C)C(=O)CCc1nc(-c2ccccc2)c(-c2ccccc2)o1	COS-7	–	–	50 µM, 24 h, 0.1% DMSO, unit not given	reference: vehicle control	apoptotic cells	0.8 ± 0.21
C=CC(=O)N1CCC[C@@H](n2nc(-c3ccc(Oc4ccccc4)cc3)c3c(N)ncnc32)C1	Glutaryl-CoA dehydrogenase, mitochondrial (Homo sapiens, UniProt Q92947)	–	–	1 µM	–	remaining activity	57.4%
CNCC(=O)O	SLC6A9 (Homo sapiens, UniProt P48067, G373S)	glycine uptake, inhibitor	–	5000 µM, with: [3H]glycine	reference: no inhibitor	remaining activity	21.7%
Nc1ncc2c(n1)-c1c([nH]c3ccc(-c4ccc(F)cc4)cc13)CCC2	TSSK1B (Homo sapiens, UniProt Q9BXA7)	kinase activity, inhibitor, radiometric	–	1 µM, with: ATP at Km	–	remaining activity	79%
COc1cc2c(c(OC)c1OC)C(=O)c1c(cc(C)c(O)c1OC)C2=O	HepaRG co-cultured with HK-2	MTT	–	66.67 µM, 24 h	reference: untreated control	cell viability	72.4 ± 7.89%
COc1ccc(F)cc1C(=O)NCc1ccc(-c2nn([C@@H](C)C(F)(F)F)c(N)c2C(N)=O)cc1	DDR1	kinase activity, inhibitor, HotSpot radiometric	–	100 nM, with: ATP 10 µM	–	remaining activity	75 ± 0.4%
CN1CCN(C(=O)[C@H](CCCN[C@@H]2C[C@H]2c2ccc(F)cc2)NC(=O)c2ccc(-n3ccnn3)cc2)CC1	panel of kinases	kinase activity, SelectScreen profiling	–	10 µM	–	remaining activity	≤ 15%
O=C(O)c1ccc(Nc2ncc3c(n2)-c2ccc(Cl)cc2C(c2c(F)cccc2F)=NC3)cc1	PTK5(h)	kinase activity	–	1 µM	–	remaining activity	90%
O=C(O)c1cc(O)c2c(c1)C(=O)c1cccc(O)c1C2=O	HepaRG co-cultured with HK-2	MTT	–	33.33 µM, 24 h	reference: untreated control	cell viability	103 ± 9.83%

A few entries again:
Compound	target or system	test	system	conditions	how to read	measurement	value
Cc1cc(=O)oc2cc(NC(=O)CCCCCCC(=O)NO)ccc12	OCI-Ly1	–	–	0.5 µM, 120 h	–	viability	48.3%
COc1cc(F)ccc1-c1ncnc(Nc2cccc(C[S@](C)(=N)=O)c2)n1	Blk (Mus musculus, UniProt P16277)	kinase activity	–	10 µM, with: 10 µM ATP	–	remaining activity	52%
C=CC(=O)N1CCC[C@@H](n2nc(-c3ccc(Oc4ccccc4)cc3)c3c(N)ncnc32)C1	Glutaryl-CoA dehydrogenase, mitochondrial (Homo sapiens, UniProt Q92947)	–	–	1 µM	–	remaining activity	57.4%
